Results gathered from unrelated publications.
± marks the error that the study gave.
Target: Tyrosine-protein kinase HCK (HCK, Homo sapiens, UniProt P08631)
Sequence of UniProt P08631 (whole entry, looked up): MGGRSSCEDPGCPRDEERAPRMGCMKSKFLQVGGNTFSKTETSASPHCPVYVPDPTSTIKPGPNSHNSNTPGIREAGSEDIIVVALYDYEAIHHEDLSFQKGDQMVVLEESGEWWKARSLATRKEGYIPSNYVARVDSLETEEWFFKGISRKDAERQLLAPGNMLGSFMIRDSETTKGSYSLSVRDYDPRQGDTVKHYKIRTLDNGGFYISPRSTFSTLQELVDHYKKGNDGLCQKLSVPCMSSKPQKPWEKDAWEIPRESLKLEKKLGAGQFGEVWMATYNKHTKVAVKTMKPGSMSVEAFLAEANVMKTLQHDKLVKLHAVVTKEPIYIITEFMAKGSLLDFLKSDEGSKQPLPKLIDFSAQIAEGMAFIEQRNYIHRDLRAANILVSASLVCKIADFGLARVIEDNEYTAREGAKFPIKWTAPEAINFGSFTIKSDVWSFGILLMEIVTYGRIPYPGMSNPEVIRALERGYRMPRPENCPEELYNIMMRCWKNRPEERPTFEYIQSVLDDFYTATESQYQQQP

With [2H]c1cc(C)c(NC(=O)c2cnc(Nc3cc(N4CCCCC4)nc(C)n3)s2)c(Cl)c1 the inhibition was over 90% (0.01 µM).
Cc1ccc(C(=O)NCc2ccsc2)cc1C#Cc1cn(C(C)C)c2ncnc(N)c12 gave a remaining activity of 4% (kinase activity; 1 µM, together with: ATP at Km).
Cc1cc(Nc2cc(N3CCN(C)CC3)nc(Sc3ccc(NC(=O)C4CC4)cc3)n2)[nH]n1 has a remaining activity of 104% (0.03 µM; baseline: control).
For COc1ccc(F)cc1C(=O)NCc1ccc(-c2nn([C@@H](C)C(F)(F)F)c(N)c2C(N)=O)cc1, the inhibition was -10.9% (target engagement, competitive chemoproteomics; human PBMCs; 0.01 µM).
The remaining activity of CCN(CC)c1ccc(C2=NNC(=O)CC2C)cc1[N+](=O)[O-] (stereo not shown) is reported as 105% (kinase activity; 10 µM, activated enzyme).
COc1cc(F)ccc1-c1ncnc(Nc2cccc(C[S@](C)(=N)=O)c2)n1 gave a remaining activity of 79% (kinase activity; 10 µM, together with: 10 µM ATP).
With [2H]c1cc(C)c(NC(=O)c2cnc(Nc3cc(N4CCC(O)CC4)nc(C)n3)s2)c(Cl)c1 the inhibition was over 50% (0.001 µM).
For C=CC(=O)N1CCC[C@@H](n2nc(-c3ccc(Oc4ccccc4)cc3)c3c(N)ncnc32)C1, the remaining activity was 102% (0.1 µM).
With C=CC(=O)N1CCC[C@@H](n2nc(-c3ccc(Oc4ccccc4)cc3)c3c(N)ncnc32)C1 the remaining activity was 15 ± 0.2% (kinase activity, inhibitor, HotSpot radiometric; 100 nM, together with: ATP 10 µM).
COc1cc(-c2cncc3c2CN(C)Cc2cc(N4CCNCC4)ccc2-3)cc(OC)c1OC has a remaining activity of 101% (kinase activity; 1 µM, together with: ATP 10 µM; baseline: DMSO control).

For quick reference, copied from above:
With [2H]c1cc(C)c(NC(=O)c2cnc(Nc3cc(N4CCCCC4)nc(C)n3)s2)c(Cl)c1 the inhibition was over 90% (0.01 µM).
